Published values of several laboratories.
Each line is one published result; not all experiments were run side by side. ± gives the spread as reported.
B1: enzyme K184A (Streptomyces parvus, UniProt A0A7K3RVR3); chain MYVPEQYRPRDASWTLELIRSNPLALLVTNGPQHPWATHVPVLFAEEPDGPEGPDGLDATGDDLVGRRLLGHLNLMNPHWEALAGAGHALLVFQGPGSYVSPTVYETAPAAPTWDFTSVHVHGALRLIDDPDDLRKIVQATVRAYEREVGTDWDMSESLEYFERLLPGVRGFEIKIESVDSMFALSQEQLPETVTKVIDSFRRSDGGRRQELATMIERAASD
B2: enzyme (Vitis vinifera, UniProt D7T1P6); chain MEMESASHEKAGLLTRLWTCLKPLPGKLVSKVAEVARKIKKLGQDDPRRVIHSLKVGLALTLISLFYYSRALYKGFGDSAMWAVMTVVVVLEFSVGATLGKGLNRGLATLLAGALGVGVHHLASLSGGIGEPMLLGFFVFLQAAASTFARFFPGIKARYDYGCLIFILTFCLVSVAGYRDREILELAHKRISTILIGGATCVIITIVVCPVWAGEDLQNLVALNLEKIGNYLEGFGGEYFRTSEDEECKDDKSFLQGYISVLNSKGSEESLENFARWEPGHGRFRFRHPWKQYLKIGTLTRQCAYRIEALNGYLNSGFQAPTEIRSKIKDVCTMMSLESGMALNELALAVKKMTRPTSADPHIEKSETAAKTLKTLLKSGIWEDTDFLEVIKVATVASLLIDVTNCTQKIAESVHELASIAHFKSVDPTVSPEKSQLSQVKLAAKVDCPQVSITVRESSPSSKESGNSLAPTAVPRVVL
B3: enzyme E188A (Streptomyces parvus, UniProt A0A7K3RVR3); chain MYVPEQYRPRDASWTLELIRSNPLALLVTNGPQHPWATHVPVLFAEEPDGPEGPDGLDATGDDLVGRRLLGHLNLMNPHWEALAGAGHALLVFQGPGSYVSPTVYETAPAAPTWDFTSVHVHGALRLIDDPDDLRKIVQATVRAYEREVGTDWDMSESLEYFERLLPGVRGFEIKIESVDSMFKLSQAQLPETVTKVIDSFRRSDGGRRQELATMIERAASD

Molecule = CN[C@H](CC(C)C)C(=O)N[C@H]1C(=O)N[C@@H](CC(N)=O)C(=O)N[C@H]2C(=O)N[C@H]3C(=O)N[C@H](C(=O)N[C@H](C(=O)NCC(N)=O)c4cc(O)cc(O)c4-c4cc3ccc4O)[C@H](O)c3ccc(c(Cl)c3)Oc3cc2cc(c3O[C@@H]2O[C@H](CO)[C@@H](O)[C@H](O)[C@H]2O[C@H]2C[C@](C)(NCc3ccc(OCc4cn(CC(=O)N[C@H](C(=O)N[C@@H](CCN)C(=O)N[C@H]5CCNC(=O)[C@H]([C@@H](C)O)NC(=O)[C@H](CCN)NC(=O)[C@H](CCN)NC(=O)[C@H](CC(C)C)NC(=O)[C@@H](CC(C)C)NC(=O)[C@H](CCN)NC5=O)[C@@H](C)O)nn4)c(OC)c3)[C@H](O)[C@H](C)O2)Oc2ccc(cc2Cl)[C@H]1O; tested on = sheep erythrocytes; setting = 512 µg/mL, 37 °C; scale = relative to: Triton X-100; endpoint = hemolysis; value = < 5%
Molecule = O=C(O)CC[C@H](NC(=O)N[C@@H](CCCCNC(=O)[C@H](Cc1ccc2ccccc2c1)NC(=O)[C@H]1CC[C@H](CNC(=O)CNC(=O)CNC(=O)CNC(=O)CN2CCN(CC(=O)O)CCN(C(CCC(=O)NCCC[P+](c3ccccc3)(c3ccccc3)c3ccccc3)C(=O)O)CCN(CC(=O)O)CC2)CC1)C(=O)O)C(=O)O (stereo partly shown) [terbium-161 labelled]; setting = pH 7.4; endpoint = logD; value = -2.75 ± 0.09
Molecule = N=C(N)NCCC[C@@H]1NC(=O)[C@H](CCCCNC(=O)CCC(NC(=S)Nc2ccc(CC3CN(CC(=O)O)CCN(CC(=O)O)CCN(CC(=O)O)CCN3CC(=O)O)cc2)C(=O)NCCCC[C@@H]2NC(=O)[C@@H](Cc3ccc(O)cc3)NC(=O)[C@H](CC(=O)O)NC(=O)CNC(=O)[C@H](CCCNC(=N)N)NC2=O)NC(=O)[C@@H](Cc2ccc(O)cc2)NC(=O)[C@H](CC(=O)O)NC(=O)CNC1=O (stereo partly shown) [scandium-44 labelled]; test = ex vivo γ-counting; test system = female athymic nude mice, U-87 MG xenograft, blood; setting = intravenous, 4 h; endpoint = tissue uptake; value = 0.02 %ID/g
Molecule = B1 (enzyme K184A); tested on = N[C@@H](CCCNO)C(=O)O; test = steady-state kinetics; setting = pH 8, 25 °C, added: heme; endpoint = Km; value = 1720 µM
Molecule = CC[C@H](C)[C@H](NC(=O)[C@H](CO)NC(=O)[C@H](Cc1ccc(O)cc1)NC(=O)[C@H](Cc1ccc(O)cc1)NC(=O)[C@H](CC(N)=O)NC(=O)CNC(=O)[C@H](CO)NC(=O)[C@H](Cc1ccc(O)cc1)NC(=O)[C@H](CO)NC(=O)[C@H](CO)NC(=O)[C@H](CC(N)=O)NC(=O)COCCOCCNC(=O)CN1CCN(CC(=O)O)CCN(CC(=O)O)CCN(CC(=O)O)CC1)C(=O)N[C@@H](CC(C)C)C(N)=O [copper-64 labelled]; test = dynamic PET; test system = tamoxifen-induced PDAC mouse model, metastases; setting = 6.5 min, CLDN4-expressing tumours; endpoint = maximum metastasis uptake; value = 26.6 %IA/cc
Molecule = B2 (enzyme); tested on = O=[N+]([O-])O; test = steady-state kinetics; setting = pH 5.5, not purified; endpoint = Km; value = 66700 µM
Molecule = CC(C)C[C@@H]1NC(=O)[C@H](CC(=O)O)NC(=O)CNC(=O)[C@H](CCCNC(=N)N)NC(=O)[C@H](Cc2ccccc2)NC(=O)[C@H](CCCCNC(=O)CCc2cn(CCCNC(=O)CCC(C(=O)O)N3CCN(CC(=O)O)CCN(CC(=O)O)CCN(CC(=O)O)CC3)nn2)N(C)C(=O)[C@H]2CCCN2C(=O)[C@H](Cc2ccccc2)NC(=O)[C@H](C)NC1=O (stereo partly shown); test system = female CB17 SCID mice, tumour and kidneys; setting = intravenous, dose not given, 90 min, 177Lu-labelled; scale = relative to: tumour over kidneys; endpoint = tissue-to-tissue ratio; value = 0.2
Molecule = C[C@@H](O)[C@@H]1NC(=O)[C@@H](NC(=O)CCOCCOCCOCCOCCNC(=O)c2ccc(NN)nc2)CSSC[C@@H](C(=O)O)NC(=O)[C@H](Cc2c[nH]cn2)NC(=O)[C@H](CO)NC(=O)[C@H](Cc2ccccc2)NC(=O)[C@@H]2CCCN2C(=O)[C@H](CO)NC(=O)[C@@H]2CCCN2C1=O [technetium-99m labelled]; test system = mouse HCT-116 xenograft, skin; setting = intravenous, 37 MBq, postmortem after imaging; endpoint = tissue uptake; value = 0.09 ± 0.01 %ID/g
Molecule = B3 (enzyme E188A); tested on = N[C@@H](CCCNO)C(=O)O; test = steady-state kinetics; setting = pH 8, 25 °C, added: heme; endpoint = Km; value = 1660 µM
Molecule = CC(C)C[C@@H]1NC(=O)[C@H](CC(=O)O)NC(=O)CNC(=O)[C@H](CCCNC(=N)N)NC(=O)[C@H](Cc2ccccc2)NC(=O)[C@H](CCCCNC(=O)CCc2cn(CCCNC(=O)CN3CCN(CC(=O)O)CCN(CC(=O)O)CCN(CC(=O)O)CC3)nn2)N(C)C(=O)[C@H]2CCCN2C(=O)[C@H](Cc2ccccc2)NC(=O)[C@H](C)NC1=O; test system = female CB17 SCID mice, tumour and pancreas; setting = intravenous, dose not given, 90 min, 177Lu-labelled; scale = relative to: tumour over pancreas; endpoint = tissue-to-tissue ratio; value = 8.1 ± 4.1

Repeated from above:
Molecule = CC(C)C[C@@H]1NC(=O)[C@H](CC(=O)O)NC(=O)CNC(=O)[C@H](CCCNC(=N)N)NC(=O)[C@H](Cc2ccccc2)NC(=O)[C@H](CCCCNC(=O)CCc2cn(CCCNC(=O)CN3CCN(CC(=O)O)CCN(CC(=O)O)CCN(CC(=O)O)CC3)nn2)N(C)C(=O)[C@H]2CCCN2C(=O)[C@H](Cc2ccccc2)NC(=O)[C@H](C)NC1=O; test system = female CB17 SCID mice, tumour and pancreas; setting = intravenous, dose not given, 90 min, 177Lu-labelled; scale = relative to: tumour over pancreas; endpoint = tissue-to-tissue ratio; value = 8.1 ± 4.1
